Assay results collected from several papers.
Protocols differ between the studies behind these lines. Several values in a cell are separate wells, animals, samples, runs or records.

SMILES	assay	test system	setting	how to read	measurement	result
CC(C)n1c(Nc2cccnc2)nc2cnc(Nc3ccc(N4CCN(C)CC4)cc3)nc21		human, male, plasma	oral, dose not given, added: itraconazole	baseline: without itraconazole	increase in AUC	~28%
CO[C@H]1/C=C/O[C@@]2(C)Oc3c(C)c(O)c4c(O)c(c(/C=N/N5CCN(C)CC5)c(O)c4c3C2=O)NC(=O)/C(C)=C\C=C\[C@H](C)[C@H](O)[C@@H](C)[C@@H](O)[C@@H](C)[C@H](OC(C)=O)[C@@H]1C		healthy humans	oral, dose not given		adverse event Chromaturia	29.2%
FC(F)(F)c1ccc(CNc2ccc(Cc3c[nH]c4ncc(Cl)cc34)cn2)cn1	item: decreased appetite	patients with advanced solid tumours	oral, dose not given, grade 1 and 2, possibly related to drug		adverse event incidence	30%
Cn1ncnc1[C@H]1c2n[nH]c(=O)c3cc(F)cc(c23)N[C@@H]1c1ccc(F)cc1		human patients, plasma	oral, 600 µg/m2, dose level DL4, median, added: temozolomide 30 mg/m2 daily days 2-6		accumulation half-life	51.2 h
O=C(Nc1ccc(OC(F)(F)Cl)cc1)c1cnc(N2CC[C@@H](O)C2)c(-c2ccn[nH]2)c1	per laboratory record, item: ALT increase	human patients	oral, dose not given, dose-finding study		grade ≥2 event rate	0.7%
Cc1cc(C)c(CNC(=O)c2cc(Cl)c3c(c2C)O[C@@](C)([C@H]2CC[C@H](N(C)C)CC2)O3)c(=O)[nH]1	population PK model	human	oral		zero-order input duration	1.22 h
Cc1ccc([C@@H]2O[C@H](CO)[C@@H](O)[C@H](O)[C@H]2O)cc1Cc1ccc(-c2ccc(F)cc2)s1		Japanese type 2 diabetes patients	200 mg, day 2, 24 h urine collection	baseline: baseline	urinary sodium excretion change	-14.4 mEq
Cn1c(Cc2ccccc2)nnc1Sc1ccc([N+](=O)[O-])cc1C(=O)N1CCOCC1		octanol/buffer	pH 11, known kinase inactives set		logP	1.48
CCOCc1nc(O)c(-c2nnc(Cc3ccc(Cl)cn3)o2)c(O)c1-c1c(OC)cccc1OC		rat, plasma	subcutaneous infusion, 0.192 mg/kg/day, day 7 after surgery		plasma concentration	113 nM
CNC(=O)c1ccc(-c2cnc3ncc(Cc4ccc5ncccc5c4)n3n2)cc1F	item: Fatigue	gastric cancer patients	oral, 600 mg twice daily, expansion cohort, grade 3-4		patients with adverse event	22%
COc1ccnc(C(=O)NC(CO)C(=O)O)c1O (racemic)		Swiss Lake sand sediment, aerobic dark	20 °C		DT50 water	30.2 days
CO[C@H]1C[C@@H]2CC[C@@H](C)[C@@](O)(O2)C(=O)C(=O)N2CCCC[C@H]2C(=O)O[C@H]([C@H](C)C[C@@H]2CC[C@@H](OC(=O)NCCOCCOCCOCCOCCOCCOCCOCCOCCC(=O)N3CCc4cc(Cn5nc(-c6ccc7oc(N)nc7c6)c6c(N)ncnc65)ccc4C3)[C@H](OC)C2)C[C@@H](O)[C@H](C)/C=C(\C)[C@@H](O)[C@@H](OC)C(=O)[C@H](C)C[C@H](C)/C=C/C=C/C=C/1C		human, plasma	intravenous, 8 mg, cycle 1 day 1, arithmetic mean		Cmax	263 ng/mL
CCCCC[C@H](O)CC[C@@H]1[C@H]2Cc3cccc(OCC(=O)O)c3C[C@H]2C[C@H]1O	LC-MS/MS	Japanese PAH patients, plasma	inhaled, 54 µg, age ≥50 years, mean		Tmax	0.17 h
C=CC(=O)Nc1cc(Nc2nccc(-c3cn(C)c4ccccc34)n2)c(OC)cc1N(C)CCN(C)C		human plasma	5 h, storage stability, medium QC sample		recovery	90.3%
CCc1c(-c2ccccc2)c(-c2ccccc2)nn1-c1ccccc1-c1cccc(OCC(=O)O)c1		Sprague-Dawley rat	intravenous		elimination rate constant	0.332 h⁻¹ and 0.475 h⁻¹ and 0.391 h⁻¹
Cc1nc(C)c(-c2ccnc(Nc3cccc([N+](=O)[O-])c3)n2)s1		octanol/buffer	pH 11		logP	4.06
C=CC(=O)NC1CCN(c2ncc3ncnc(Nc4ccc(Oc5ccc6c(c5)ncn6C)c(C)c4)c3n2)CC1		human, male, plasma	oral, 30 mg, fed and fasted	up to	time quantifiable in plasma	≤ 118 h
CCn1cc(C2CC2)c2c(Cc3ccc(C(F)(F)F)nc3)n(C)nc2c1=O		rat Sprague-Dawley male, blood	intravenous, 1 mg/kg		CLint,u	68.2 mL/min/kg
CCc1cc2ncc(CN3CCN(c4ccc(C(=O)NC)nc4)CC3)cc2[nH]c1=O		female rat, blood	oral, 50 mg/kg/day, 4 weeks	baseline: vehicle control	Monocytes count ratio	0.43
Cl.[2H]C([2H])([2H])CC(=O)c1cnc(NC(=O)C2CC2)cc1Nc1cccc(-c2ncn(C([2H])([2H])[2H])n2)c1OC	geometric mean	human	oral, 5 mg single dose, fasted, liquid		AUC(0-24 h)	283 ng·h/mL

Repeated from above:
SMILES	assay	test system	setting	how to read	measurement	result
CO[C@H]1C[C@@H]2CC[C@@H](C)[C@@](O)(O2)C(=O)C(=O)N2CCCC[C@H]2C(=O)O[C@H]([C@H](C)C[C@@H]2CC[C@@H](OC(=O)NCCOCCOCCOCCOCCOCCOCCOCCOCCC(=O)N3CCc4cc(Cn5nc(-c6ccc7oc(N)nc7c6)c6c(N)ncnc65)ccc4C3)[C@H](OC)C2)C[C@@H](O)[C@H](C)/C=C(\C)[C@@H](O)[C@@H](OC)C(=O)[C@H](C)C[C@H](C)/C=C/C=C/C=C/1C		human, plasma	intravenous, 8 mg, cycle 1 day 1, arithmetic mean		Cmax	263 ng/mL
C=CC(=O)Nc1cc(Nc2nccc(-c3cn(C)c4ccccc34)n2)c(OC)cc1N(C)CCN(C)C		human plasma	5 h, storage stability, medium QC sample		recovery	90.3%
